Results of several laboratories.
A part holds a random share of what one study measured. Changes are numbered by the printed parent chain.

Set 1
Target: Histone acetyltransferase KAT6A, both winged helices, GST fusion (KAT6A, Homo sapiens, UniProt Q92794, residues 1-181)
Method: protein binding microarray
Form: double-stranded DNA, one strand shown
Sample: in vitro
Concentration: not given
Notes: 8-mer, flanks averaged, mean of 2 arrays, mostly near background
Baseline: not given
Reading: higher = stronger binding
Endpoint: E-score
Residues (chain): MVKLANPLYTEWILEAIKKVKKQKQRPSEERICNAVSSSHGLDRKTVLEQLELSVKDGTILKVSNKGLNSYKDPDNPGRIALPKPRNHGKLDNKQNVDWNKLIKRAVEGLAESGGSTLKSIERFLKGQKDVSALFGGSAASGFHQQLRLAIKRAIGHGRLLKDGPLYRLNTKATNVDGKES
ACACCTTG: -0.117
AAACATAC: 0.086
CCTACAGA: -0.203
GACGTTCA: 0.127
ATTGCCGC: 0.264
ACTACAAG: -0.126
GGCCTCGA: -0.0625
CCCAAAAA: -0.0963
ACTGTTCA: -0.0433
TAAGGGTA: -0.19
AAACTCGT: -0.0148
AGACCAGA: -0.165
CTGCACCA: -0.272
AGTAAAGA: -0.0417
ACCGTATC: 0.197
CGTACAGA: -0.0768

Set 2
Target: CCNB2, cyclin fold, Cln2 fusion (human)
Method: yeast growth competition, sequencing
Sample: yeast
Notes: weak parent motif
Baseline: not given
Reading: higher = stronger binding
Endpoint: normalised enrichment score
Starting sequence: MASTL docking peptide (human); PMIAKNLMCELDE
PMIAKGLMCELDE [N6G]: -0.0415
PIIAKNLMCELDE [M2I]: 1.12
PMIAKNFMCELDE [L7F]: -0.293
PMTAKNLMCELDE [I3T]: 0.309
PMIAKNLMCETDE [L11T]: -0.0268
PMIAKNLTCELDE [M8T]: -0.109
PMINKNLMCELDE [A4N]: 0.353
PMIAKNIMCELDE [L7I]: 0.374
PMIAKNLMTELDE [C9T]: 0.847
PMIAKTLMCELDE [N6T]: 0.321
PMIAKNLMCEDDE [L11D]: -0.488
PMIAKNLCCELDE [M8C]: 0.089
PMIAKNLMCELYE [D12Y]: -0.205
PMIAKNCMCELDE [L7C]: -0.426
PCIAKNLMCELDE [M2C]: 0.835
PMIAKNLMCERDE [L11R]: -0.134
PMIAKMLMCELDE [N6M]: 0.362
PMIAKNGMCELDE [L7G]: -0.545
PMIMKNLMCELDE [A4M]: 0.207
PMIAKNLMCEADE [L11A]: -0.188
PMIAKNLMCCLDE [E10C]: 0.54
PMIAKNLMGELDE [C9G]: 0.124
PMIAKNLMCRLDE [E10R]: 0.803
PMIAKNLMWELDE [C9W]: 0.909
PMIAKNLLCELDE [M8L]: 1.11

Set 3
Target: Sal-like protein 4, full length isoform A (SALL4, Homo sapiens, UniProt Q9UJQ4, residues 1-1053)
UniProt Q9UJQ4, sequence (whole entry, looked up): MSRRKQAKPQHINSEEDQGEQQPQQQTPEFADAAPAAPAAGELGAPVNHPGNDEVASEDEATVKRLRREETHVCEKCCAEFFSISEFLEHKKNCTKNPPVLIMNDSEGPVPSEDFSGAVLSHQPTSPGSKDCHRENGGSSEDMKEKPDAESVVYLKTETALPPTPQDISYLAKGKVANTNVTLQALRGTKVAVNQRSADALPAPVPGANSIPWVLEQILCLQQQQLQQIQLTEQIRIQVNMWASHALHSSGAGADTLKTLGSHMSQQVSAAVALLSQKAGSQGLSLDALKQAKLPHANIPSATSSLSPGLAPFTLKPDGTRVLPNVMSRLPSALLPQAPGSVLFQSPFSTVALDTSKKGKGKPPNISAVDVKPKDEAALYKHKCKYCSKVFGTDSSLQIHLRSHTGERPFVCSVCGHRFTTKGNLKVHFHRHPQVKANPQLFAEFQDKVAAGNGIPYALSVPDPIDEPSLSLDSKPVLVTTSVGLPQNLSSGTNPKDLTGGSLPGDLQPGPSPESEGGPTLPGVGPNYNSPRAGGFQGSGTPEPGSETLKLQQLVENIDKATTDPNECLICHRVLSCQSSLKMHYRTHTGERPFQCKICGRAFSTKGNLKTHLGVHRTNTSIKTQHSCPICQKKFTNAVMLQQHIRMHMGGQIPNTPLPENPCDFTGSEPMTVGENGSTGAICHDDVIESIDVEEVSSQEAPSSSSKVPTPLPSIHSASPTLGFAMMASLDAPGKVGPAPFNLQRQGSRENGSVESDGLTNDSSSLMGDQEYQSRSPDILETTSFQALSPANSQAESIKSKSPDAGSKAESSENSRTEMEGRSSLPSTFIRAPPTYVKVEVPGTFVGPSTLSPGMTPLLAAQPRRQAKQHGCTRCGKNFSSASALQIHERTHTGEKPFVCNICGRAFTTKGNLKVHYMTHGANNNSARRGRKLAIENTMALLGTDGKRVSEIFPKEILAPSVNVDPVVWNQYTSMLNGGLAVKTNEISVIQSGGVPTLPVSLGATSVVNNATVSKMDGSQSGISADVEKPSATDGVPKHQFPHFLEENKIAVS
Method: universal PBM
Form: double-stranded DNA, one strand shown
Sample: in vitro
Concentration: 600 nM
Notes: 8-mer, flanks averaged, mean of replicates
Reading: higher = stronger binding
Endpoint: E-score
ATTTGAGA: 0.189
AGGAATTC: -0.0209
TGTAGAAA: 0.145
TAGCTTCA: 0.0246
CGGGATTA: -0.0198
AGACAGTG: -0.0939
TCCGGACA: -0.184
AGGGACAG: -0.157
AGACTGCG: -0.274
CGTCAGGA: -0.0836
GCAGCCAA: -0.00188
ACCAGCAC: -0.0884
CTGACAAC: -0.0954
ATGGACCC: -0.185
TCACAAAA: 0.152
ATGAAACG: 0.259

Single results of other studies
PhoQ, residues 284 288 289 292 302 303 AMDMFI  fold induction (PhoP, residues 12 14 15 18 19 SYFRT (Escherichia coli, UniProt P23836); Sort-seq, item: YFP reporter; E. coli; PhoQ-PhoP variant library, together with: 10 µM Mg2+; baseline: high Mg2+ state, higher = stronger signaling): 2.22
